Measured values pooled from the literature.
Every numbered part comes from another study and shows a few of its results, in no order. Changes are numbered by the printed parent chain.

Study 1 — method: competition protein-binding microarray; form: double-stranded DNA, one strand shown; sample: in vitro; concentration: 2 µM; together with: Pho4 competitor, 0.05 µM; reading: higher = stronger binding; all sequences stand within: … GTCTTGATTCGCTTGACGCTGCTG
Target: Centromere-binding protein 1, full length, His-tagged (CBF1, Saccharomyces cerevisiae, UniProt P17106, residues 1-351)
Chain of UniProt P17106 (whole entry, looked up): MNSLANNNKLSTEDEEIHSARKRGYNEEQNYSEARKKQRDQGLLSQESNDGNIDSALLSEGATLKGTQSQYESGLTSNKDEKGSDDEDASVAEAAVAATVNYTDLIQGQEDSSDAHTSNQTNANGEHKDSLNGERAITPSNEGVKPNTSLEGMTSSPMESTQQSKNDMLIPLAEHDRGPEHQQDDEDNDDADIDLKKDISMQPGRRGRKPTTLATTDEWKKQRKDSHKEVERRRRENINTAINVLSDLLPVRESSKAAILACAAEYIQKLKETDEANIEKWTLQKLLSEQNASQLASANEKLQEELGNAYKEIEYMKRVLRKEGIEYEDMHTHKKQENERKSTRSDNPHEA
Notes: whole 60-bp probe, lowest competitor level
| Strand | fluorescence intensity [a.u.] |
| --- | --- |
| CTTGTTAATCTTATCCATGTGGAATCCCCACCACCA | 93.1 |
| ATGGCTACTTTTATCCCCGTGACGAAATCTATCACT | 617 |
| AAACACTTCCACCTACACGTGAGAGCCAAAGCCATA | 1030 |
| GCGCTCTTGTTCATGTTCGTGATGGTGTCCAGCCAT | 86.6 |
| GTCTTGTCTCATTGTCACCCGACTTTCCCCACTTCA | 86.4 |
| TTGGATGCTTTGGACGACGTGATGGACCATTTGGAA | 88.9 |
| TAGCTCCGCTTTATTCACGTGAAATGGGGTCGAAAT | 737 |
| CATAATAACAGTTGCGTTGTGACGCTATTGTTAACA | 75 |
| TTTTTCATCGACCGTCACGTGACGGGCTGAGGTTAA | 17600 |
| TAGTGCCTCGGAGATACCGTGATGGAATGGGATCGG | 98 |
| GCTGCAGGTTCTAACCATGTGATGACAATGGATTTG | 602 |
| CATACCCAACCTTGCGAGGTGGGTGAAGATATTTGT | 50 |
| ACTGAGTCTACCAGTTATGTGACAGTATATGTCAGC | 76.4 |
| CATACCCAACCTTGTGTGGTGGGTGAAGATATTTGT | 65.9 |
| AAATTACTAAGTTGACCGGTGGGTGACGCCGTATGA | 75.8 |
| TCTTATTTAATTCGTCACAGACGGTAACGCAGCGCC | 89 |
| CATACCCAACCTTGTACCGTGGGTGAAGATATTTGT | 70.7 |
| CGGTAACGTCGCACTCACATGAGTTTTCCTGACTTC | 78.8 |
| TGCGCAACAACTTGTCCTGTGGGTGTATGTCTAGAA | 76.7 |

Study 2 — method: RNA Bind-n-Seq; form: RNA; sample: in vitro; concentration: not given; reference: input RNA pool; reading: higher = stronger binding
Target: RING finger protein unkempt homolog, zinc fingers 1-6, GST-SBP tag (UNK, Homo sapiens, UniProt Q9C0B0, residues 30-357)
Chain of UniProt Q9C0B0 (30-357, looked up): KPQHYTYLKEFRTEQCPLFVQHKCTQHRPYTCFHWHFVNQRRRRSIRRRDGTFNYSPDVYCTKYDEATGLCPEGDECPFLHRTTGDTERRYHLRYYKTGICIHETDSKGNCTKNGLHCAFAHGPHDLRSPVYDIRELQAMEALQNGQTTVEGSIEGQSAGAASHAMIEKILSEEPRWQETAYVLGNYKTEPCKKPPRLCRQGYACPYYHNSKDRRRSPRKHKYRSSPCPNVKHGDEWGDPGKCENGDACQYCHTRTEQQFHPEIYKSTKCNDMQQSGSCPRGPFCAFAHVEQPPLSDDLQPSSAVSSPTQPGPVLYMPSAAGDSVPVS
Notes: RNA with constant flanks, human-mouse chimeric sites, ends assumed
All sequences stand within: GGGAGUUCUACAGUCCGACGAUC … CAACAGAGGAUUGAGCAUCA
| Strand | bound/input enrichment [ratio] |
| --- | --- |
| GCAGGAUCUUCUAAAUACCAGUGGGACAUUAUGAAAUCCCUUGGGCUGUCUGAUGAAGACAUAGUGAAGUUUUCUGAAGCAGAGCACUGGCUUGAUUAUUUCCCACCACUGGCCGUUCAG | 0.164 |
| CUGUGUGUGCUGAAUAAAUGGCUUGUAAAGAAGUUUUUCCAAGCUGUACCCAUGUACUCCCUUAGAGUUGCUGCAAAAUGUUCUUCCUGAUAUUGAUUUUAUUUGUUAACUGAAGGUCUC | 1.27 |
| GAUGAUAAUCACACAAACAAGUCACUGUUACAUGACCAGCCUUGGGAUUCUUCUCCUGAUUAAUAUUCUCCCUGGAACCACUGGUCAAGGGGAAUCAAGACGACAAGAACCCGGGGACUU | 0.126 |
| CGCGUCCUCUCGCUGCUGCGGAGCCCGAGCUGGGAACCAUUCCGGGACUGGUACCCUGCACACAGCCGCCUCUUCGAUCAAGCUUUCGGGCUGCCCCGGUUGCCCGAUGAGUGGUCGCAG | 0.137 |
| GUACUGCAACAGCAGGGCAAGCUGCAGGAAGCUCUGAUGCAUUAUAAGGAGGCUAUUCGAAUCAGUCCUACCUUUGCUGAUGCCUACUCUAAUAUGGGAAACACUCUAAAGGAGAUGCAG | 0.174 |
| CGCCUGGAUGAGGCGGGUGUCACAGAUGAAGUGCUAGAUUCUGCCAUGCAAGCCUUCUUACUAGAAAUCAUUGUUAAACAUGGGGAGCCGGCACCUUAUUUAUGUAACAAAGAUCCGUUU | 0.219 |
| GGUGGGGUGGUCAUUGCCGUUUGAGCUCUGCUGAUUCAUGAGUCGCCUUCAAAACUCUCGUGUAGGGUUGACACUGUGGGGGGGUGGGGGAUCCAGCUUAUUCUUUUAUUUUCAAGUCCA | 1.04 |
| CUGUGACCACAAGAUCCUACCUGAGUGUUCAGAUGGGUUGACUCCCUCCCCUUCCCUGAACCCCCCCCCACUGCCCCCCCAUCCCCCAGUGUCGGCUGAGAUGUUGCCUCUGCACGGUUC | 1.32 |

Study 3 — target: BIRC6 UBC core domain (UniProt Q9NR09); method: yeast two-hybrid; sample: yeast; notes: mostly zero background; reference: not given; reading: higher = stronger interaction
B1: UHRF2 RING domain (UniProt Q96PU4); chain CGGDPEKKCHSCSCRVCGGKHEPNMQLLCDECNVAYHIYCLNPPLDKVPEEEYWYCPSCKTDSSEVVKAGER
B2: MID1 RING domain (UniProt O15344); chain METLESELTCPICLELFEDPLLLPCAHSLCFNCAHRILVSHCATNESVESITAFQCPTCRHVITLSQRGL
B3: TRIM8 RING domain (UniProt Q9BZR9); chain WKNCFEEELICPICLHVFVEPVQLPCKHNFCRGCIGEAWAKDSGLVRCPECNQAYNQKPGLE
Residues (chain): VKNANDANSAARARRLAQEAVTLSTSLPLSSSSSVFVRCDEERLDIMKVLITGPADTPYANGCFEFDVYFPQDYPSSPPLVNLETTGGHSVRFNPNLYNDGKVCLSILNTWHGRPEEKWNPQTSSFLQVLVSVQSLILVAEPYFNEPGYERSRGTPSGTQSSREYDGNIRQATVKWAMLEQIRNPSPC
| Molecule | lacZ reporter activity |
| --- | --- |
| B1 (UHRF2 RING domain) | 0 |
| B2 (MID1 RING domain) | 0 |
| QLRRLQEERTCKVCMDKEVSIVFIPCGHLVVCKDCAPSLRKCPICRSTIKGTVRTF (BIRC3 RING domain (UniProt Q13489)) | 0 |
| B3 (TRIM8 RING domain) | 0 |
| QLQDIKEQTMCPVCLDRLKNMIFLCGHGTCQLCGDRMSECPICRKAIERRILLY (MIB1 RING domain (UniProt Q86YT6)) | 0 |
| KTLSRFGIQPCSICLGDAKDPVCLPCDHVHCLRCLRAWFASEQMICPYCLTALPDEFSPA (RNF213 RING domain (UniProt Q63HN8)) | 0 |
| FPEHFVKSISCQICEHILADPVETNCKHVFCRVCILRCLKVMGSYCPSCRYPCFPTDLES (RAG1 RING domain (UniProt P15918)) | 0 |

Study 4 — target: CCNA2, cyclin fold, Cln2 fusion (human); method: yeast growth competition, sequencing; sample: yeast; notes: weak parent motif; reference: not given; reading: higher = stronger binding
Starting sequence: FOXM1 docking peptide (human); PHLARPIKVESPP
| Variant | normalised enrichment score |
| --- | --- |
| PALARPIKVESPP [H2A] | -0.629 |
| PHLARPIAVESPP [K8A] | -0.268 |
| PHLARAIKVESPP [P6A] | -0.236 |
| PHLARPIKVESPA [P13A] | -0.546 |
| PHLARPIKAESPP [V9A] | -0.335 |
| PHLAAPIKVESPP [R5A] | -0.875 |

Study 5 — method: DHFR PCA, deep sequencing; sample: yeast; together with: (+)-ABA 0.032 µM; reference: wild-type fitted maximum; reading: higher = stronger binding
Target: ABI1, truncated, D143A, DHFR fusion (Arabidopsis thaliana)
Notes: methotrexate growth selection, single substitutions
Starting sequence: PYL1, truncated, DHFR fusion (Arabidopsis thaliana); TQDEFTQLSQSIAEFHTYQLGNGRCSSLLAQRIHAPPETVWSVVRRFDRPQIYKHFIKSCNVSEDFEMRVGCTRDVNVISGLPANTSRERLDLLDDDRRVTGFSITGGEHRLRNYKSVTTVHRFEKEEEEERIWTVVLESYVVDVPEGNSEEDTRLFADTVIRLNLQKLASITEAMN; partner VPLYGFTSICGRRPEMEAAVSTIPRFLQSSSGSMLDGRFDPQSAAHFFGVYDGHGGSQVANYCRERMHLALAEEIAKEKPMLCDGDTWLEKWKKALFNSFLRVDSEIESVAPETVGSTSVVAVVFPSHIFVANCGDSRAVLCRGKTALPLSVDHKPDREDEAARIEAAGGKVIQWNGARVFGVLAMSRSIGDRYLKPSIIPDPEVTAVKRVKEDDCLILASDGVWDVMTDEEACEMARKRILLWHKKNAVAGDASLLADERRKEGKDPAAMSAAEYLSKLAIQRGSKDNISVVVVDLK
| Variant | relative binding score [%] |
| --- | --- |
| R113L | 19.3 |
| S104T | 39.3 |
| T106F | 11.8 |
| Y141P | -4.92 |
| N177S | 43.2 |
| T86F | 22.1 |
| M176L | 9.58 |
| D144K | 0.88 |
| D92Y | 7.54 |
| F66E | 5.61 |
| N165A | 3.65 |
| E151M | 27.7 |
| A158K | -8.84 |
| Q31S | -1.24 |
| N114V | 0.308 |
| R111G | 3.96 |
| E109D | 86 |
| V118Q | 3.53 |

A few entries again (study 1):
| Strand | fluorescence intensity [a.u.] |
| --- | --- |
| CTTGTTAATCTTATCCATGTGGAATCCCCACCACCA | 93.1 |
| ATGGCTACTTTTATCCCCGTGACGAAATCTATCACT | 617 |
| AAACACTTCCACCTACACGTGAGAGCCAAAGCCATA | 1030 |
| GCGCTCTTGTTCATGTTCGTGATGGTGTCCAGCCAT | 86.6 |
| GTCTTGTCTCATTGTCACCCGACTTTCCCCACTTCA | 86.4 |
| TTGGATGCTTTGGACGACGTGATGGACCATTTGGAA | 88.9 |
| TAGCTCCGCTTTATTCACGTGAAATGGGGTCGAAAT | 737 |
